Results pooled from the literature.
Target: Myosin-IIIb (MYO3B, Homo sapiens, UniProt Q8WXR4)

Compound	assay	setting	scale	endpoint	value
CNC(=O)C1CCN(c2cc(C)c(F)cc2NC(=O)c2ccc(-c3cc(O)ccc3C)c(C)c2)CC1	binding, competition with immobilised ligand	1 µM	–	remaining binding	100%
C=CC(=O)N1CCc2ccc(-n3c(=O)ccc4cnc5ccc(-c6cnn(C)c6)cc5c43)cc21	KINOMEscan	1 µM	reference: DMSO control	remaining binding	100%
Cc1nc2c(F)cc(-c3nc(Nc4ccc(CNC(=O)CCCCCCC(=O)NO)cc4)ncc3F)cc2n1C(C)C	enzyme activity, inhibitor	1 µM	–	inhibition	82%
COc1cc(Nc2nc(C)cc(-c3cnn4nc(OC)ccc34)n2)cc(C(F)(F)F)c1	inhibitor	1 µM	reference: control	remaining activity	100%
CNC1C[S+]2CC[S+]3CC[S+](C1)[Ru-4]321([N]=C=S)[n]2c3ccc(OC)cc3c3c4c(c5cc(F)c[n+]1c5c32)C(=O)NC4=O (stereo not shown)	KinomeScan	0.1 µM	reference: untreated	remaining binding	70%
NC(=O)[C@@H](O)C[C@H]1CCc2sc3ncnc(O[C@H]4CC[C@H](N5CCOCC5)CC4)c3c21	enzyme activity, inhibitor	10 µM	–	inhibition	13%
CCn1cc(C(=O)O)c(=O)c2c(N)c(F)c(NC3CCCCC3)cc21	kinase activity	0.1 µM, together with: ATP at Km	–	inhibition	-5.9%
Nc1ncc2c(n1)-c1c([nH]c3ccc(C4=CCOCC4)cc13)CCC2	binding, competition with immobilised ligand	1 µM	–	remaining binding	91%
CNC(=O)C[C@H](Cc1ccc(C#N)cc1)NC(=O)c1cc(-c2ccc(CN[C@H](C)c3ccc(C)cc3)o2)ccc1Cl	enzyme activity, inhibitor	1 µM	–	activity vs control	108%
C=CC(=O)N1Cc2nc(-c3cc(-c4cc(Cl)cnc4Cl)c(F)cc3F)n(-c3ccncn3)c2C1	cell-free assay	1 µM	–	inhibition	9.1%
CN1CCN(Cc2ccc(-c3ccc(CO[C@H]4CCC[C@@H]4NC(=O)c4cc(-c5cnn(C)c5)cnc4N)cc3)cc2)CC1	enzyme activity, inhibitor	0.1 µM	–	inhibition	3%
NC(=O)C[C@H]1CCc2sc3ncnc(O[C@H]4CC[C@H](N5CCOCC5)CC4)c3c21	enzyme activity, inhibitor	10 µM	–	inhibition	3%
C=CC(=O)N1CCCC(n2c(=O)c3ncccc3n(Cc3ccc(Oc4ccccc4)cc3)c2=O)C1 (stereo not shown)	cell-free assay, competition with immobilised ligand	1 µM	–	remaining binding	100%
Cc1ccc(-c2c(/C=C(\C#N)C(=O)NC(C)C)n(CCCO)c3ncnc(N)c23)cc1	binding, competition with immobilised ligand	1 µM	–	remaining binding	78%
CC(C)=CC1OC(C)(C)C2C=C3C(=O)C(Cl)=CC(O)C3C3C(O)C4OC4C(=O)C132 (stereo not shown)	cell-free assay, competition with immobilised ligand	10 µM	–	remaining binding	100%
COc1cc(Nc2nccc(-c3cnn4nc(OC)ccc34)n2)cc(C(F)(F)F)c1	binding, competition with immobilised ligand	1 µM	–	remaining binding	82%
O=C(Cc1ccc(OCc2ccccc2)cc1)NC1(C(=O)O)CCN(C(=O)c2ccc(-c3cccc(Cl)c3)cc2)CC1	enzyme activity, inhibitor	10 µM	–	activity vs control	100%
CCN1CCN(Cc2ccc(C(=O)Nc3ccc(C)c(NCc4cnc5[nH]ccc5c4OC)c3)cc2C(F)(F)F)CC1	binding, competition with immobilised ligand	1 µM	–	remaining binding	49%
Cc1cnc2nc1Nc1cccc(c1)COC/C=C/COCc1cc(ccc1OCCN1CCOCC1)N2	binding	0.1 µM	–	remaining binding	97%
CN1CC[C@@H](COc2cnc(C#N)cc2-c2ccn3nc(NC(=O)C4CC4)cc3c2)C1	enzyme activity, inhibitor	1 µM	–	inhibition	4%
Nc1ncc(-c2cc(-c3cnn(CC(F)(F)F)c3)ncc2F)nc1C(=O)NC1CNCC(F)C1 (stereo not shown)	enzyme activity	1 µM	reference: DMSO control	remaining activity	108%
COc1c(Cl)cccc1Nc1c(-c2ccncc2C#C[C@@]2(C)CCCN2C(=O)/C=C/CN(C)C)[nH]c2c1C(=O)NCC2	binding, competition with immobilised ligand	3 µM	–	remaining binding	88%

Some of these lines once more:
Compound	assay	setting	scale	endpoint	value
CNC(=O)C[C@H](Cc1ccc(C#N)cc1)NC(=O)c1cc(-c2ccc(CN[C@H](C)c3ccc(C)cc3)o2)ccc1Cl	enzyme activity, inhibitor	1 µM	–	activity vs control	108%
CNC(=O)C1CCN(c2cc(C)c(F)cc2NC(=O)c2ccc(-c3cc(O)ccc3C)c(C)c2)CC1	binding, competition with immobilised ligand	1 µM	–	remaining binding	100%
